Results pooled from the literature.
Each line is one published result; not all experiments were run side by side. ± marks the error that the study gave.

SMILES	target or system	assay	system	setting	scale	endpoint	result
CNc1cc(OC)c(Nc2nccc(-c3cn(C4CC4)c4ccccc34)n2)cc1NC(=O)CCSCC(N)C(=O)O (stereo not shown)	–	–	human, urine and feces	0 to 96 h urine, 0 to 240 h feces	reference: dose	excreted amount	6.83%
CC(C)(O)c1ncc([S@](N)(=O)=NC(=O)Nc2c3c(cc4c2CCC4)CCC3)s1	–	–	healthy human fasted, plasma	oral, 100 mg single dose, spray-dried dispersion	–	AUC(0-last)	98500 ng·h/mL
Cc1cc(-c2ccc(NC(=O)[C@H](CCCCNC(=O)CCOCCOCCC(=O)N[C@H](Cc3ccccc3)C(=O)N[C@H]3CSSC[C@@H](C(=O)N[C@H](C(=O)O)[C@@H](C)O)NC(=O)[C@H]([C@@H](C)O)NC(=O)[C@H](CCCCN)NC(=O)[C@@H](Cc4c[nH]c5ccccc45)NC(=O)[C@H](Cc4ccc(O)cc4)NC3=O)NC(=O)CN3CCN(CC(=O)O)CCN(CC(=O)O)CCN(CC(=O)O)CC3)c(C)c2)ccc1N=Nc1ccc2c(S(=O)(=O)O)cc(S(=O)(=O)O)c(N)c2c1O [lutetium-177 labelled]	–	–	patients with metastatic NETs, lymph node metastases	intravenous	–	effective half-life	153 ± 50 h
CO[C@@H]1[C@H](O)[C@@H](COP(=O)(O)OP(=O)([O-])C(Cl)(Cl)P(=O)(O)OP(=O)(O)OC[C@H]2O[C@@H](n3cnc4c(=O)[nH]c(N)nc43)[C@H](O)[C@@H]2O)O[C@H]1n1c[n+](C)c2c(O)nc(N)nc21	–	cap-dependent translation, inhibitor	rabbit reticulocyte lysate	preincubated 60 min in lysate	–	IC50	1.23 ± 0.11 µM
COc1ccc(-c2csc(N/N=C(\C)c3ccc(O)cc3)n2)cc1	–	–	stock and working solutions	concentration not given, 7 days, room temperature	–	deviation from initial concentration	< 10%
COc1cc2c(cc1OC)CN(CCCCn1ccc3cc(OCC[18F])ccc31)C2	–	–	male ICR mice	intravenous, 280 kBq, 60 min post-injection	–	bone uptake	5.19 ± 0.84 %ID/g
Cn1c(=O)oc2ccc(-c3ccc(CC(C#N)NC(=O)C4CNCCCO4)c(F)c3)cc21 (stereo not shown)	–	item: blood bilirubin increased	human	40 mg single dose, fasted	–	subjects with TRAE	8.3%
NC[C@@H](C(=O)Nc1ccc(-c2cn[nH]c2)cc1)c1ccccc1	–	OECD 405 eye irritation	New Zealand White rabbit, eye	topical, 0.1%, 96 h (day 5), scale 0 to 4	direction not given	chemosis score	0
CC[C@H](C)[C@H](NC(=O)[C@H](CC(C)C)NC(=O)[C@H](Cc1c[nH]c2ccccc12)NC(=O)[C@H](C)NC(=O)[C@@H](NC(=O)[C@H](Cc1ccccc1)NC(=O)[C@H](CC(=O)O)NC(=O)[C@H](CCCNC(=N)N)NC(=O)[C@H](C)NC(=O)[C@H](C)NC(=O)[C@H](CC(C)C)NC(=O)[C@H](C)NC(=O)[C@H](CC(=O)O)NC(=O)[C@H](CC(C)C)NC(=O)[C@@H](NC(=O)[C@@H](NC(=O)[C@H](C)NC(=O)[C@H](CC(C)C)NC(=O)[C@H](CCC(=O)O)NC(=O)[C@H](CO)NC(=O)[C@H](CO)NC(=O)[C@H](Cc1ccccc1)NC(=O)[C@@H](NC(=O)CNC(=O)[C@H](CCC(=O)O)NC(=O)CNC(=O)[C@@H](N)Cc1c[nH]cn1)[C@@H](C)O)[C@@H](C)O)[C@@H](C)CC)[C@@H](C)CC)C(=O)N[C@@H](C)C(=O)N[C@H](C(=O)N[C@@H](CCCCN)C(=O)N[C@H](C(=O)N[C@H](C(=O)N[C@@H](CC(=O)O)C(=O)N[C@@H](CCCCN)C(=O)N[C@@H](CCCCN)C(=O)O)[C@@H](C)O)[C@@H](C)CC)[C@@H](C)O	–	–	healthy human subjects, plasma	subcutaneous, 5 mg once weekly, day 36 after 6 doses, steady state, median	–	tmax	8 h
N=C(N)c1ccc(-c2ccc(-c3cccs3)o2)nc1	Salmonella typhimurium	liquid broth OD	TA1535	25 µM, 15 h	reference: growth	viability	101 ± 4.4%
O=C(Cc1ccc2ccccc2c1)N[C@H](Cc1ccc(O)cc1)C(=O)N[C@H](Cc1ccccc1)C(=O)N[C@H](Cc1ccccc1)C(=O)N[C@H](Cc1ccc(OP(=O)(O)O)cc1)C(=O)O	–	substrate, rheology	hydrogel	0.5 wt%, together with: alkaline phosphatase 0.05 U/mL	–	gelation time	0.3 h
O=C(NCCCN(CCCCN(CCCNC(=O)c1cccc(=O)n1[O-])C(=O)c1cccc(=O)n1[O-])C(=O)c1cccc(=O)n1[O-])c1cccc(=O)n1[O-].[89Zr+4]	–	–	mouse, intestine	10 min	–	tracer uptake	5.99 %ID/g
Cc1ccccc1/N=N/c1ccc(/N=N/c2c(O)ccc3ccccc23)c(C)c1	–	–	rat whole blood QC samples	16.0 µg/L, 12 h, room temperature, short-term stability	–	measured concentration	16.1 µg/L
COc1cccc([O-])c1C=NCCCN(C)CCN(C)CCCN=Cc1c([O-])cccc1OC.[67Ga+3]	–	–	rat	intravenous, 2 h	reference: heart over blood	tissue uptake ratio	37.9 ± 3.5
[2H]C([2H])([2H])Oc1cc2c(cc1OC([2H])([2H])[2H])[C@H]1CC(=O)[C@H](CC(C)C)CN1CC2	–	item: headache	human	oral, 25 mg	–	subjects with adverse event	9.5%
Cc1nn(-c2ccc(S(=O)(=O)N[C@@H](CO)CC(C)C)cc2)c2nn3nnnc3nc12	PC-3	AO/EB staining	–	2 µM, 24 h	–	necrotic cells	82 ± 2.82%
C[Si]1(C[C@H](CN)CC(=O)O)CCCC1	–	–	Sprague-Dawley rat, male, brain	oral, 100 mg/kg, estimated as Cmax x Kp	–	brain Cmax	13.6 µM
CCCC[C@H](NC(=O)CNC(=O)CNC(=O)CN1CCN(CC(=O)O)CCN(CC(=O)O)CC1)C(=O)N[C@H]1CC(=O)NCCCC[C@@H](C(N)=O)NC(=O)[C@H](Cc2c[nH]c3ccccc23)NC(=O)[C@H](CCCNC(=N)N)NC(=O)[C@@H](Cc2ccccc2)NC(=O)[C@H](Cc2c[nH]cn2)NC1=O [gallium-67 labelled]	–	–	C57 mice, B16/F1 melanoma	4 h	–	tumour to skin uptake ratio	28.1
Brc1ccc(Nc2nc(NN=Cc3c[nH]c4ccccc34)nc(N3CCOCC3)n2)cc1	–	–	human liver microsomes	in vivo extrapolated	–	hepatic clearance	0 mL/min

SMILES	target or system	assay	system	setting	scale	endpoint	result
N=C(N)NCCC[C@@H]1NC(=O)[C@H](Cc2c[nH]c3ccccc23)NC(=O)[C@@H](CC2CCCCC2)NC(=O)[C@@H]2CCCN2C(=O)[C@@H](NC(=O)CCc2ccccc2)CCCNC1=O	–	–	C57BL/6J mice, spinal cord	subcutaneous, 1 mg/kg	–	absorption half-life	0.515 h
Cc1cccc(-c2cccc(C)n2)n1.Cc1cccc(-c2cccc(C)n2)n1.[Cl-].[Cl-].[Ru+2].c1ccc(-c2ccnc3c2ccc2c(-c4ccccc4)ccnc23)cc1	–	–	phosphate buffer with NaCl	concentration not given, pH 7.4, 37 °C, dark, dialysis	–	total release from nanoassemblies	77%
COc1cc(NC(C)=O)c2c(c1O)-c1c(OC)c(OC)cc3c1C(C2)N(C)CC3 (stereo not shown)	–	–	rat, processed plasma samples	0.5 µg/mL, 24 h, room temperature, post-preparative storage	–	remaining compound	121 ± 3.2%
CC1(CO)CCCC2(C)C1CCC1(C)c3cocc3CCC12 (stereo not shown)	–	–	NOD-SCID mouse, intact mature male	oral, 10 mg/kg, 13 daily doses, androgen-dependent tissue	–	testes weight	no effect
NC12CNCCNCC(NCc3ccc(CNC(=O)CCCC(=O)NCc4ccc(-c5nncnn5)cc4)cc3)(CNCCNC1)CNCCNC2.[64Cu+2]	–	OLINDA dosimetry	brain	24 h pretargeting interval, together with: huA33-TCO pretargeting	–	mean absorbed dose	0.0364 rad/mCi
CC(=O)N[C@H](C(=O)N[C@H](C(=O)N[C@@H](CCCNC(=N)N)C(=O)N1Cc2ccccc2C[C@H]1C(=O)N[C@@H](Cc1ccccc1)C(N)=O)C1CCCCC1)C(C)C	human PBMC	Bio-Plex multiplex, item: IL-8	–	250 µg/mL, 24 h	–	cytokine level	15700 ± 14400 pg/mL
O=C(O)c1cccc(S(=O)(=O)Nc2ccccc2)c1	–	–	human, normal liver function, plasma	intravenous, 400 mg/m^2 belinostat, cycle 1 day -7, geometric mean	reference: metabolite over belinostat	AUC(0-inf) metabolic ratio	1.24
CC/C=C\C/C=C\C/C=C\C/C=C\C/C=C\CCCCOC(CC)C(=O)O (stereo not shown)	–	[14C] label	male Wistar rat, kidney cortex	oral, 100 mg/kg, 4 h	–	radioactivity concentration	92.8 µg equiv/g
COC(=O)c1ccc2c(c1)NC(=O)/C2=C(\Nc1ccc2c(c1)CCN2C(=O)CN1CCOCC1)c1ccccc1	–	–	beagle dog, blood	intravenous, 2 mg/kg	–	clearance	37.2 mL/min/kg
COc1cc2ncnc(Oc3ccc(Nc4nccc5[nH]cc(-c6ccc(F)cc6)c(=O)c45)cc3F)c2cc1OC	–	–	Sprague-Dawley rat, male, plasma	oral, 10 mg/kg	–	CL	0.333 mL/min/kg
C[n+]1cn([C@@H]2O[C@H](COP(=O)([O-])OP(=O)(O)CP(=O)(O)O)[C@@H](O)[C@H]2O)c2nc(N)nc(O)c21	–	cap-dependent translation, inhibitor	rabbit reticulocyte lysate	preincubated 60 min in lysate	–	IC50	9.87 ± 0.84 µM
CSc1cc(C)nc(SC)c1NC(=O)CN1CCN(CCSc2nc3ccccc3[nH]2)CC1.Cl	–	–	mouse Crl:CD1 (ICR), female, olfactory bulb	intranasal, 10 µL, 120 min, once daily for 7 days	–	concentration	0 ng/g
COCCOCCOCCOCCC(=O)NCc1cc(CNC(=O)CCOCCOCCOCCOC)cc(-c2cc3cc4nc(c(-c5ccc(CCC(=O)O)cc5)c5[nH]c(cc6nc(c(OC)c2[nH]3)CC6(C)C)cc5-c2cc(CNC(=O)CCOCCOCCOCCOC)cc(CNC(=O)CCOCCOCCOCCOC)c2)CC4(C)C)c1	–	–	DMF	room temperature	–	kf^−1	23 ns
CN(C)S(=O)(=O)NC(=O)c1ccc2c(C3CCCCC3)c3n(c2c1)CC(C(=O)N1CCOCC1)=Cc1ccccc1-3	–	–	phosphate buffer	pH 6.5	–	amorphous solubility	< 1 µg/mL
N=C(N)c1ccc(-c2ccc(-c3ccco3)o2)cc1	Salmonella typhimurium	liquid broth OD	TA1535	12.5 µM, 15 h	reference: growth	viability	79.1 ± 2.6%
[64Cu+2].c1ccc(CNCc2ccc(CN3CCCN4CCNCCCN(CC4)CC3)cc2)nc1	CXCR4	–	NOD/SCID mouse, U87 and U87-stb-CXCR4 xenografts, kidney	iv, 30 min, ex vivo	–	tissue uptake	34 ± 5.69 %ID/g
NS(=O)(=O)Nc1ncnc(OCCOc2ncc(Br)cn2)c1-c1ccc(Br)cc1	–	M6 formation	female Sprague-Dawley rat, liver microsomes	150 mg/kg daily for 4 weeks	–	Km	1.7 ± 0.8 µM
Cc1ccc(OCC(=O)N(Cc2cccs2)c2ccn[nH]2)cc1	–	–	female Sprague-Dawley rat, plasma	oral, 100 mg/kg, single dose	–	Tmax	0.5 h

Excerpt of the above:
SMILES	target or system	assay	system	setting	scale	endpoint	result
CN(C)S(=O)(=O)NC(=O)c1ccc2c(C3CCCCC3)c3n(c2c1)CC(C(=O)N1CCOCC1)=Cc1ccccc1-3	–	–	phosphate buffer	pH 6.5	–	amorphous solubility	< 1 µg/mL
N=C(N)c1ccc(-c2ccc(-c3ccco3)o2)cc1	Salmonella typhimurium	liquid broth OD	TA1535	12.5 µM, 15 h	reference: growth	viability	79.1 ± 2.6%
